Experimental data gathered from unrelated publications.
Numbered parts are unrelated; each lists some results of a single study. Several values in a cell are separate wells, animals, samples, runs or records.
Sequence of UniProt Q15303 (whole entry, looked up): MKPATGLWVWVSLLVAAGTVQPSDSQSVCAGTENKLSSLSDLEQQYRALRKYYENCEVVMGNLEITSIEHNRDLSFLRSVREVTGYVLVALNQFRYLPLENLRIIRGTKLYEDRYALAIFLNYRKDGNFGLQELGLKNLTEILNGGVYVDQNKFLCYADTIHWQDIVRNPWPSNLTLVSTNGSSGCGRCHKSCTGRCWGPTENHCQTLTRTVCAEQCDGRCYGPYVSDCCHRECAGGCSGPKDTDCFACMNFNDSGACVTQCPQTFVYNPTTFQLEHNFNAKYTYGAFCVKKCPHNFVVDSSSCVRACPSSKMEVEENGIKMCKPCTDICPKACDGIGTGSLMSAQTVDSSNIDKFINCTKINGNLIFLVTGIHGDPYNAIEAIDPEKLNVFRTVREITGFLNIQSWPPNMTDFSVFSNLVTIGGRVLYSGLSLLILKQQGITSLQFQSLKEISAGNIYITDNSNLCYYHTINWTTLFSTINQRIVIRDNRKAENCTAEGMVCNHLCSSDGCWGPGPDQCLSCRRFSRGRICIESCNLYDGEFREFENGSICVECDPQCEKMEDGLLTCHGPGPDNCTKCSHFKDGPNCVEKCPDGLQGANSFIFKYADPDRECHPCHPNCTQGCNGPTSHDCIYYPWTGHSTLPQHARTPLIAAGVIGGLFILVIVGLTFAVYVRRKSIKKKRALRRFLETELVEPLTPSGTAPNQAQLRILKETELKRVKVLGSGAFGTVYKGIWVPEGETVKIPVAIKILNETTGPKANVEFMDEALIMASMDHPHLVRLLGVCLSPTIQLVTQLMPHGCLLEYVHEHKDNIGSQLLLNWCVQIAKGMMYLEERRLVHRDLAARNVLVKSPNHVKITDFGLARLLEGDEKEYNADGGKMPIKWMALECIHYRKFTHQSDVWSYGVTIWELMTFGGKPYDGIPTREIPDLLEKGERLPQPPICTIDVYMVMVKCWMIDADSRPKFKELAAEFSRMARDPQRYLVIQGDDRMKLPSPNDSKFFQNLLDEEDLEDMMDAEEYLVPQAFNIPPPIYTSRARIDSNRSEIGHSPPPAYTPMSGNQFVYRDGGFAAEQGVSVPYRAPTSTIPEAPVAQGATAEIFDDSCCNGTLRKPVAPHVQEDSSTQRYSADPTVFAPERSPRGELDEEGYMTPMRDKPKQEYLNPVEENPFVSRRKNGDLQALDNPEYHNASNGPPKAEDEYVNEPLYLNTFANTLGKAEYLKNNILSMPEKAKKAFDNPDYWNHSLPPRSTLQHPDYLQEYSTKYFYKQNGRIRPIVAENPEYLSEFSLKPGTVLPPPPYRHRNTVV
Sequence of UniProt Q00532 (whole entry, looked up): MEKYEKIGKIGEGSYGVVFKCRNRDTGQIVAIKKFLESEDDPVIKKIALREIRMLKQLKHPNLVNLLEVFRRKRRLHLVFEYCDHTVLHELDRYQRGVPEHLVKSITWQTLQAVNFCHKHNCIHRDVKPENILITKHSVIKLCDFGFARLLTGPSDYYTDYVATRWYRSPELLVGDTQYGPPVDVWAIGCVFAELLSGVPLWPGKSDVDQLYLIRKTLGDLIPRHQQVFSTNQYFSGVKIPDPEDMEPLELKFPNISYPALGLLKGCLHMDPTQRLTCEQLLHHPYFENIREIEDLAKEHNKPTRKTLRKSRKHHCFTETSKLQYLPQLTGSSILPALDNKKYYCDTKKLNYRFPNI

Block 1
Species: human
Matrix: microsomes or S9
Concentration: 2 µM
Time: 0.5 h
Measurement: remaining compound
O=C(O)c1cc(-c2ccccc2)nn1-c1ncccc1-c1ccccc1: > 99%
c1ccc(-c2nnc3n2CCN(c2ccc4nccnc4n2)C3)cc1: > 100%
Oc1c2ccc(-c3ccc[nH]3)nc2nn1-c1ccccc1: 43.8%
Cn1cc(C(NC(=O)c2c[nH]c3c(F)cccc3c2=O)[C@H]2C[C@@H](O)C2)cn1 (stereo partly drawn): > 100%
Cc1cnn(CC2CN(c3nccn4nc(C)cc34)CCO2)c1 (stereo not drawn): 82.7%

Block 2
SMILES: c1ccc(Oc2ccc(Nc3c4c(nc5ccccc35)CCC4)cc2)cc1
Measurement: cytotoxicity
RAW264.7; resazurin; 66.66 µM, 64 h: 80% and 87%
HepG2; resazurin; 0.66 µM, 48 h: 2%
HEK293; resazurin; 0.166 µM, 10% serum: 8%
HEK293; resazurin; 33.32 µM, 10% serum: 96% and 89%
PMA-differentiated THP-1 macrophages; 0.02 µM, 64 h: 9% and 10%

Block 3
Cell line: UACC-903 melanoma
Measurement: IC50
CN(C)CCC=C1c2ccccc2C=Cc2ccccc21: 22.7 µM
CNCCCC1c2ccccc2C=Cc2ccccc21: 10.8 µM
CN(C)CCCN1c2ccccc2Sc2ccc(Cl)cc21: 16.4 µM
CN(C)CC/C=C1/c2ccccc2Sc2ccc(Cl)cc21: 15.8 µM
OC1(c2ccc(Cl)c(C(F)(F)F)c2)CCN(CCCC(c2ccc(F)cc2)c2ccc(F)cc2)CC1: 4.6 µM

Block 4
Compound: N#CC1(c2ccccn2)CCN(Cc2cc(C(=O)N3CCCC3)c(=O)n3ccccc23)CC1
Observed: cell-free assay
Technique: competition with immobilised ligand
Concentration: 1 µM
Measurement: remaining binding
Epidermal growth factor receptor (EGFR, Homo sapiens, UniProt P00533, L861Q): 79%
Dual specificity tyrosine-phosphorylation-regulated kinase 1A (DYRK1A, Homo sapiens, UniProt Q13627): 94%
Fibroblast growth factor receptor 2 (FGFR2, Homo sapiens, UniProt P21802): 91%
Homeodomain-interacting protein kinase 1 (HIPK1, Homo sapiens, UniProt Q86Z02): 77%
Mitogen-activated protein kinase kinase kinase 11 (MAP3K11, Homo sapiens, UniProt Q16584): 89%
Myosin light chain kinase, smooth muscle (MYLK, Homo sapiens, UniProt Q15746): 100%
Homeodomain-interacting protein kinase 2 (HIPK2, Homo sapiens, UniProt Q9H2X6): 100%
Mitogen-activated protein kinase kinase kinase kinase 5 (MAP4K5, Homo sapiens, UniProt Q9Y4K4): 75%
Protein kinase C delta type (PRKCD, Homo sapiens, UniProt Q05655): 95%
Citron Rho-interacting kinase (CIT, Homo sapiens, UniProt O14578): 99%
Receptor-interacting serine/threonine-protein kinase 1 (RIPK1, Homo sapiens, UniProt Q13546): 100%
Rho-associated protein kinase 1 (ROCK1, Homo sapiens, UniProt Q13464): 100%
Ribosomal protein S6 kinase alpha-4, C-terminal kinase domain (RPS6KA4, Homo sapiens, UniProt O75676): 100%
Ribosomal protein S6 kinase alpha-3, N-terminal kinase domain (RPS6KA3, Homo sapiens, UniProt P51812): 60%
Cyclin-dependent kinase-like 1 (CDKL1, Homo sapiens, UniProt Q00532): 78%
Tyrosine-protein kinase ABL1, non-phosphorylated (ABL1, Homo sapiens, UniProt P00519, H396P): 77%
Serine/threonine-protein kinase NLK (NLK, Homo sapiens, UniProt Q9UBE8): 92%
Tyrosine-protein kinase ABL1, non-phosphorylated (ABL1, Homo sapiens, UniProt P00519): 78%
Serine/threonine-protein kinase Nek11 (NEK11, Homo sapiens, UniProt Q8NG66): 63%
Serine/threonine-protein kinase LATS2 (LATS2, Homo sapiens, UniProt Q9NRM7): 93%
Dual specificity protein kinase CLK4 (CLK4, Homo sapiens, UniProt Q9HAZ1): 97%
Cyclin-dependent kinase-like 5 (CDKL5, Homo sapiens, UniProt O76039): 100%
Dual specificity protein kinase CLK1 (CLK1, Homo sapiens, UniProt P49759): 85%
Tyrosine-protein kinase TXK (TXK, Homo sapiens, UniProt P42681): 91%
Mast/stem cell growth factor receptor Kit (KIT, Homo sapiens, UniProt P10721): 95%

Block 5
Cell line: mouse MPNST tumor cells
Technique: high-content immunofluorescence imaging
Item: nuclear SOX9
Concentration: 10 µM
Time: 12 h
Setting: mean of 2 replicates
Reference: DMSO control
Reading: higher = more nuclear SOX9
Measurement: nuclear SOX9 intensity
CN(C)CCOC(C)(c1ccccc1)c1ccccn1 (stereo not drawn): 108 % of DMSO
C[C@]12C=CC(=O)C=C1CC[C@H]1[C@@H]3C[C@@H](O)[C@](O)(C(=O)CO)[C@@]3(C)C[C@H](O)[C@@]12F: 89 % of DMSO
OCCN(CCO)c1nc(N2CCCCCCC2)c2nc(N(CCO)CCO)nc(N3CCCCCCC3)c2n1: 184 % of DMSO
CCc1c(C(=O)NCCc2ccc(N3CCCCC3)cc2)[nH]c2ccc(Cl)cc12: 108 % of DMSO
CCN(c1nc(N)c(C(=O)N=C(N)N)nc1Cl)C(C)C: 115 % of DMSO

Block 6
SMILES: C[C@H]1CC[C@H](n2c3cnccc3c3cnc(Nc4ccc5c(n4)CCN(C(=O)CO)C5)nc32)CC1
Observed: binding
Concentration: 1 µM
Measurement: remaining binding
Receptor tyrosine-protein kinase erbB-4 (ERBB4, Homo sapiens, UniProt Q15303); competition with immobilised ligand: 84%
Inhibitor of nuclear factor kappa-B kinase subunit beta (IKBKB, Homo sapiens, UniProt O14920): 80%
Myosin light chain kinase 2, skeletal/cardiac muscle (MYLK2, Homo sapiens, UniProt Q9H1R3); competition with immobilised ligand: 87%

Block 7
Target: DNA polymerase theta, ATPase domain (POLQ, Homo sapiens, UniProt O75417)
Sequence of UniProt O75417 (whole entry, unmodified, looked up): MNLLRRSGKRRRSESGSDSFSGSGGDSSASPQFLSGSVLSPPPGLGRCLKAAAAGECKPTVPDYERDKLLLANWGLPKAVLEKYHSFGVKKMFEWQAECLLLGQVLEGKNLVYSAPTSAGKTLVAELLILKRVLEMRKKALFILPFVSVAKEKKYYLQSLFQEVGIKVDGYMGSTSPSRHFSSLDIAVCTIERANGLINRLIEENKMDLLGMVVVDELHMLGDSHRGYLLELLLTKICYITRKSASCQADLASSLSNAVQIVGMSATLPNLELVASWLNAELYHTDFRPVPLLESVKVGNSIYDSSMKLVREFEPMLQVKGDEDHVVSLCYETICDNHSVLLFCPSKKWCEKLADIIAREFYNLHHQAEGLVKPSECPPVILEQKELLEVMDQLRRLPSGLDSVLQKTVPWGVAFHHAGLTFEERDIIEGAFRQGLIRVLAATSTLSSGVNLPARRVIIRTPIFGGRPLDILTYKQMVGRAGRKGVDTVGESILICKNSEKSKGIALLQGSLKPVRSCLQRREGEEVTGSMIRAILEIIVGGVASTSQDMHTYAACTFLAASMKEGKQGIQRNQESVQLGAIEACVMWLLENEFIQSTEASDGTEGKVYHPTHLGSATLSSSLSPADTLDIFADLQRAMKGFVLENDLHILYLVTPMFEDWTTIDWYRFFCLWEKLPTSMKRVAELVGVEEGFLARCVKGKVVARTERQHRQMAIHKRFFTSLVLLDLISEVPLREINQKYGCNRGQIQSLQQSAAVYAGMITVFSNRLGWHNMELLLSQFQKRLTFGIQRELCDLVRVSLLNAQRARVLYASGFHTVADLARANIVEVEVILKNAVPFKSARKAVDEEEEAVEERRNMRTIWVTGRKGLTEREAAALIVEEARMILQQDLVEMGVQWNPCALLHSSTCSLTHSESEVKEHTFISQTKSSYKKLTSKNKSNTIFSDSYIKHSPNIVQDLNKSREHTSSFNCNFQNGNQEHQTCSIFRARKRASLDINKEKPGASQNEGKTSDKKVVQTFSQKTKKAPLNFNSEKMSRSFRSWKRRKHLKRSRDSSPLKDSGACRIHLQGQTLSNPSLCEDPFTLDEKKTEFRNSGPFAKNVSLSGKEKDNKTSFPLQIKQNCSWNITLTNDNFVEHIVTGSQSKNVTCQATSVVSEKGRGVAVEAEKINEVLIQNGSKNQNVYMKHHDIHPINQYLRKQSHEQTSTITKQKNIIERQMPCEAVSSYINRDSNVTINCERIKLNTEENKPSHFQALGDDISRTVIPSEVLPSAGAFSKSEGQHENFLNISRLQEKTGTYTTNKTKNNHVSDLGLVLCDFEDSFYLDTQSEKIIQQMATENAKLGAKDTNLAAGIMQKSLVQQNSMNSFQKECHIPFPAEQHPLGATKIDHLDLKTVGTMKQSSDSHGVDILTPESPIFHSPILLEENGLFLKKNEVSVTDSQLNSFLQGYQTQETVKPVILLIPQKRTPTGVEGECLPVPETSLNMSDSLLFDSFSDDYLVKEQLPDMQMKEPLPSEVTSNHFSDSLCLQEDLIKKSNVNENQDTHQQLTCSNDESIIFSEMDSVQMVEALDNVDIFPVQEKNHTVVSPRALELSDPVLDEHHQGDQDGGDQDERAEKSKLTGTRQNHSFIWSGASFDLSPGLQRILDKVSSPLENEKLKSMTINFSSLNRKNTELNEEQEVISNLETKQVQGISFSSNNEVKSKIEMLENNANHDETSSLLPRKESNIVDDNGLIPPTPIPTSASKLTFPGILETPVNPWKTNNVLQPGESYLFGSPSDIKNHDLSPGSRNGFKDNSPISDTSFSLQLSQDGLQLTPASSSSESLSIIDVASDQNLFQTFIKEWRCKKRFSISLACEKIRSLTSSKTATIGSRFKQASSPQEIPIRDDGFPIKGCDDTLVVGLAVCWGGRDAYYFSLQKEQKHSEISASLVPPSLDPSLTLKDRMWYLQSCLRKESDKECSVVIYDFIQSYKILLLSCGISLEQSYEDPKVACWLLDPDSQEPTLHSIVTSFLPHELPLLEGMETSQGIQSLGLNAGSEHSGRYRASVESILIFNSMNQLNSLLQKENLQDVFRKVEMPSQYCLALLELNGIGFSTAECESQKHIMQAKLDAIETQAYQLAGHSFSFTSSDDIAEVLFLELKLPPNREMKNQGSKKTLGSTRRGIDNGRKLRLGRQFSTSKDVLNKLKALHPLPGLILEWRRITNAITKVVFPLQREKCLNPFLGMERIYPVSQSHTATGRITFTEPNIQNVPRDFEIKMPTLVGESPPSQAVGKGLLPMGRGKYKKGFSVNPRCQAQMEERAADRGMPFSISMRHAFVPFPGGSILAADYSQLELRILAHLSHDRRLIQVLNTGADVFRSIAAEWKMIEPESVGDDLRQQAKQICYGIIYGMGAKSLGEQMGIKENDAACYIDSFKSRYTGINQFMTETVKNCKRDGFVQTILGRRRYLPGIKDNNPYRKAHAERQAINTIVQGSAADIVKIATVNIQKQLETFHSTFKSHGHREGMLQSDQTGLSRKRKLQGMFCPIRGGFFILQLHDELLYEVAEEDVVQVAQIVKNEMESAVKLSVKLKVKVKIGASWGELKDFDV
Observed: enzyme activity
Action: inhibitor
Concentration: 77 µM
Measurement: remaining activity
CC[C@H](CO)Nc1nc(NCc2ccccc2)c2ncn(C(C)C)c2n1: 102%
CCC(=O)Nc1ccc2ncnc(Nc3cccc(Br)c3)c2c1: 120%
CNC(=O)c1ccc(N2C(=S)N(c3ccc(C#N)c(C(F)(F)F)c3)C(=O)C2(C)C)cc1F: 95.8%

Block 8
Target: NUAK family SNF1-like kinase 2 (NUAK2, Homo sapiens, UniProt Q9H093)
Sequence of UniProt Q9H093 (whole entry, looked up): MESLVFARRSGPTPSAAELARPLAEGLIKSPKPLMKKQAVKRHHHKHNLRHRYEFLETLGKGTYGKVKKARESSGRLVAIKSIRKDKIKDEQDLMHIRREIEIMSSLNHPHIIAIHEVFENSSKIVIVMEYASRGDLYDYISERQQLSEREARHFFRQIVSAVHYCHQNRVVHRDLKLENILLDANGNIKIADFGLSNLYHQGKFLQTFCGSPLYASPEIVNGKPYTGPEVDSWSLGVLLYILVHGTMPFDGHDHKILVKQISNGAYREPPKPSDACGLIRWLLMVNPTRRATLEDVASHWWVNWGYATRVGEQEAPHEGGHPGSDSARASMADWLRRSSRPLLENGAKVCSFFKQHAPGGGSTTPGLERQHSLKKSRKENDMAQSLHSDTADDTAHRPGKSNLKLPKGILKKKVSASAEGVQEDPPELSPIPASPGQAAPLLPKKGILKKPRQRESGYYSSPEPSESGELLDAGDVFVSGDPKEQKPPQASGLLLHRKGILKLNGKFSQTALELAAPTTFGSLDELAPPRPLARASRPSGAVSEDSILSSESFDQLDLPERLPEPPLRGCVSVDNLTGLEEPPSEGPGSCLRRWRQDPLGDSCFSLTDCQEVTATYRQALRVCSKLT
Observed: cell-free assay
Concentration: 0.5 µM
Measurement: remaining signal
Clc1ccc(Nc2nnc(Cc3ccncc3)c3ccccc23)cc1: 105%
COc1cc(Nc2c(C#N)cnc3cc(OCCCN4CCN(C)CC4)c(OC)cc23)c(Cl)cc1Cl: 59.5%
COc1cc2ncnc(Nc3ccc(F)c(Cl)c3)c2cc1OCCCN1CCOCC1: 96%
